Results pooled from the literature.
Parts stem from different laboratories: compare values within a part only. Positions count from the first letter of the parent shown.

Block 1
Target: Histone acetyltransferase KAT6A, both winged helices, GST fusion (KAT6A, Homo sapiens, UniProt Q92794, residues 1-181)
Technique: protein binding microarray
Molecule type: double-stranded DNA, one strand shown
Medium: in vitro
Concentration: not given
Setting: 8-mer, flanks averaged, mean of 2 arrays, mostly near background
Reference: not given
Direction: higher = stronger binding
Construct (chain): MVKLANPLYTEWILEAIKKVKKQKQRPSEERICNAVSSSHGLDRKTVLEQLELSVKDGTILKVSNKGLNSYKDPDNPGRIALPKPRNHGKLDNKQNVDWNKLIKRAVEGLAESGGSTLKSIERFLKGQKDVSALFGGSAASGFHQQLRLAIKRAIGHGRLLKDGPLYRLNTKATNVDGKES
Oligonucleotide	E-score
ACCGGGAT	0.165
CACTACAG	-0.202
CCCTCGCG	0.22
ACTCTAAC	-0.148
CAGATCCG	0.139
GCATCTCC	0.0193
AGAGCGCA	0.111
GGCCAATA	0.0389
GAGAAGGC	-0.173
GCTGCAGC	0.159
CAGTTGTA	0.0877
GAAGCCCA	-0.119
GTCACATA	0.0645
AAGCAATC	-0.0404
CCGCTACC	0.232
CTCGTTCC	-0.0518
AAGACATG	-0.0781
AAGGTGTG	-0.128
ACATTAAC	-0.0774
AGCCCGCC	0.191
TAGGTTCA	-0.113
AGTTAGGA	-0.0915
AGTGCTAA	0.0362
AATATAGG	0.00916
GCCTGAGC	0.00761

Block 2
Target: Interferon regulatory factor 3, full length, phosphomimetic (IRF3, Homo sapiens, UniProt Q14653, residues 1-427, S386D/S396D/S398D/S402D/T404D/S405D)
Sequence of UniProt Q14653 (whole entry, unmodified, looked up): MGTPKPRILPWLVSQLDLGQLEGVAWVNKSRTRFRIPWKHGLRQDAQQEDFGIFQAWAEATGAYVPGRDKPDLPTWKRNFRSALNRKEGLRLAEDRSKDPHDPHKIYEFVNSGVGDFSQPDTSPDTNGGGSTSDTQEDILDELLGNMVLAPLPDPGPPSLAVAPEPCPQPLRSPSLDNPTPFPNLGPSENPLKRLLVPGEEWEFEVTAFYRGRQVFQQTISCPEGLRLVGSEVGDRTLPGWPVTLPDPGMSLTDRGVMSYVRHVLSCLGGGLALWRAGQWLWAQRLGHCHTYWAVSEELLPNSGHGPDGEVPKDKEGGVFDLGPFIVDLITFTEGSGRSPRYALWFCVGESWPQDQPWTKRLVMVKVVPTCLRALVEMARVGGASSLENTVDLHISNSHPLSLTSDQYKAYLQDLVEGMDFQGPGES
Technique: protein-binding microarray
Molecule type: double-stranded DNA, one strand shown
Medium: in vitro
Concentration: 2540 nM top
Setting: 60-bp whole probe
With: salmon DNA 0.4 mg/ml
Reference: random background probes
Direction: higher = stronger binding
Constant ends, left off below: GCCTAGCAC … GTCTTGATTCGCTTGACGCTGCTG
Oligonucleotide	fitted relative affinity
GGAAAAATGATGTTTTAGGTCGTGCTA	0.0885 z-score
GACGTTCTCCTACTGCTGACGTGCTAG	1.76 z-score
TTAGCTCTCGGTATCGGTTAGTGCTAG	1.68 z-score
TTATAACTGAGTCTCGATTAGTGCTAG	0.0383 z-score
GACGGACTGGTTATCGGGACGTGCTAG	-0.274 z-score
TTAGTACTGAGACTGGATTAGTGCTAG	-0.326 z-score
TTGTGTTTGTCCCTATTTAAGTGCTAG	0.606 z-score
TCATTTTTTTTTTTACTACTGTGCTAG	1.5 z-score
TTAGGCCTCCTTATCCTTTAGTGCTAG	0.41 z-score
TTAGGACTCGGGTTTCGGTTAGTGCTA	2.33 z-score
TTAGGTCTCTGTATCGGTTAGTGCTAG	1.52 z-score
TTAGGTTTCGGGCTTCGGTTAGTGCTA	3.22 z-score
TTAGGCCTGCTTCTCCTTTAGTGCTAG	-0.427 z-score
TTAGAACTGAGTTTGGATTAGTGCTAG	-0.359 z-score
TTAGGTATCAGTCTCGATTAGTGCTAG	3.58 z-score
GCAGATTGGGTTTCAGGGCTGTGCTAG	0.404 z-score
GCCGGTTTCGGGTATCGGGACGTGCTA	5.1 z-score
ATAGGTATCGACTATCGGTTAGTGCTA	0.797 z-score

Block 3
Target: CCNB1, cyclin fold, Cln2 fusion (human)
Technique: yeast growth competition, sequencing
Medium: yeast
Setting: weak parent motif
Reference: not given
Direction: higher = stronger binding
Starting sequence: ORC1 docking peptide (human); PRARKRLELGNLG
Substitution	normalised enrichment score
G13S	1.06
P1C	1.37
P1S	0.385
G10M	0.691
P1T	0.827
K5V	0.0102
R2C	-0.00543
E8Q	0.988
R6W	-0.66
E8S	0.681
G10E	0.19
E8H	0.396
A3N	1.46
A3C	1.5
L7I	0.918
K5L	0.105
L7A	0.617
K5M	0.612
L9M	0.974
K5N	0.339
P1N	0.675
A3M	1.67

Block 4
Target: ABI1, truncated, D143A, DHFR fusion (Arabidopsis thaliana)
Technique: DHFR PCA, deep sequencing
Medium: yeast
Setting: methotrexate growth selection, single substitutions
With: (+)-ABA 0 µM
Reference: wild-type fitted maximum
Direction: higher = stronger binding
Starting sequence: PYL1, truncated, DHFR fusion (Arabidopsis thaliana); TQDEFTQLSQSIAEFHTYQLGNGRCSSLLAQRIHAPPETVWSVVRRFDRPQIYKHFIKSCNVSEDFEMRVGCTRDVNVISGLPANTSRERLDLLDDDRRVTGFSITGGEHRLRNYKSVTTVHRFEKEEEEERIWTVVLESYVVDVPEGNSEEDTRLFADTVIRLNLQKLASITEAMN; partner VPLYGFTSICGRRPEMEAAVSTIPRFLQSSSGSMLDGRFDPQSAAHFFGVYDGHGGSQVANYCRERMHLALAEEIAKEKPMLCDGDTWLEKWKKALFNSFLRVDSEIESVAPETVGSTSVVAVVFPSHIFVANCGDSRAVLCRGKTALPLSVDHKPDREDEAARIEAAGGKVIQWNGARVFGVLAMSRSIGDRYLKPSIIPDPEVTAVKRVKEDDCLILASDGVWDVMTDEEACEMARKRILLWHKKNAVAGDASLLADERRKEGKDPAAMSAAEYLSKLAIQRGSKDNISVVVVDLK
Substitution	relative binding score
V70W	-1.1%
E174A	2.94%
V121K	-0.306%
Y18P	4.44%
G21W	3.99%
N149Y	20.4%
L112R	-1.02%
I162N	3.42%
R49N	11%
K168C	5.81%

Block 5
Target: RNA binding protein fox-1 homolog 2, RRM domain, GST-SBP tag (RBFOX2, Homo sapiens, UniProt O43251-10, residues 100-194)
Technique: RNA Bind-n-Seq
Molecule type: RNA
Medium: in vitro
Concentration: 365 nM
Setting: natural RNA segment, single round, ends assumed
Reference: no-protein control
Direction: higher = stronger binding
Residues (chain): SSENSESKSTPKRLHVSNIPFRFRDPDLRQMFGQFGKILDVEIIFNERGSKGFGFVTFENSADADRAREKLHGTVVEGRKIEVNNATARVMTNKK
Oligonucleotide	RBNS enrichment (R)
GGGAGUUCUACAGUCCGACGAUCCAUCAUUGAAUAAGUCUUAUUCAGUCAUCGGUGAGGUUAAUGCACUAAUCAUGGAUUUUUUGAACAUGUUAUUGCAGUGAUUCUCAAAUUAACUGUAUUGGUGUAAGAGUUGGAAUUCUCGGGUGCCAA	0.305
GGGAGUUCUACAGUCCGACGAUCUUCUAGAAACAGUUUGGUAAACAUAAAAGAGAGCAAGAUCAUUCUCGAUCUUCAUCCUCUUCAGCAUCACCUUCUUCUCCCAGUUCUCGAGAAGAAAAGGAGAGUAAGAAUGGAAUUCUCGGGUGCCAA	0.526
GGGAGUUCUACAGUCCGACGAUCGCAAGAGCUGAACUCCUGCUGCCUGGUAGGCCCCACAAGGCCUAGUCUGGAAGCGUAUGGAAUCAGAAAUAAUCCUCAGUGUAAAAUGUCUUGUGAUUUUUCUCUGUGAAUGGAAUUCUCGGGUGCCAA	0.334
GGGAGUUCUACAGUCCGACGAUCGUUACAUCAGAAUGUCAGAUGGAAGAAAAACAAGCUGGCCCUGGGCAAAAUGCUCAACUGUCAGCCCCGCAAGUAGACAGCUGUGUGCCGGACACCACCUAGCUGCAGCAUGGAAUUCUCGGGUGCCAA	1.42
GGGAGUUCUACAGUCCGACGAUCGUCCUGUGACCCAUAUUUAGCCGUGUUUGGGACUCCGUGUCUUCAAUGGUUUGUUAGUUGCCAUUACAACUUUGUCUGGGUAGAGUUUUUGAGUUUUUGCAGUUCAGUAUUGGAAUUCUCGGGUGCCAA	1.52
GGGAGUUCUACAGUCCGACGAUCUUUUCAGUUGUUUGUUUUUGCUUGUUAUAUUAAGCAGAAAUCCUGCAAUGAAAGGUACUAUAUUUGCUAGACUCUAGACAAGAUAUUGUACAUAAAAGAAUUUUUUUGUCUGGAAUUCUCGGGUGCCAA	0.399
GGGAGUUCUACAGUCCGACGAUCCACCCUUUGUACCAGAUGUUGAGUGACCAGCUCUGUGGCCCUGUGUCGUCAGAGGCUUGUGAUUAACUGUGGCGGCAGACACAGCUUGUCCACAGCUUGGGCCAGGCUUCUGGAAUUCUCGGGUGCCAA	0.243
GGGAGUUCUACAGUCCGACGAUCUACCUUUUUAGGCCCCUGUAACUUCCCACCUUUAAACUGCCCAGAAGGCAUGCCUCUCCCACAGGAAGAGGGGAGCAGACAGGGAAAUCUGCCUACCAAGAGGGGUGUGUUGGAAUUCUCGGGUGCCAA	0.418
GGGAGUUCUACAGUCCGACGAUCGCAGGAUUCUAUUUUGAGGGAAAAGACAGUAUCCUUAUUACCUUUUGUUUGUUUAAUAGCACAAAUGCUUAUUUGUUAUCCAAAAACAACCUCCUUCUUAUCUGUGAUAAUGGAAUUCUCGGGUGCCAA	0.389
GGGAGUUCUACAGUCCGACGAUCAACAGGAUAAAGUCUUGUGUAUAGCAAAGUAGUUGCAUCUGUUUAUUUUCUAUUUAUUAUUGUUACAAUAGGUAAUAGUUAUAGCAAUUAUUUAUUGAUUUGUAACAACUUGGAAUUCUCGGGUGCCAA	0.764
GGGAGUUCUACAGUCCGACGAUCACCAAAUUGUUGUGUUGAGAUGAUAUUUAACUUUUUGCCAAAUAAAAUAUAUUGAUUCUUUUCUAUUUUUGCGGGUCUGCUCUUUGCACCUUCUUCUCUGGGUCAGGGGAUGGAAUUCUCGGGUGCCAA	1.85
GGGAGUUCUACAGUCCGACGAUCUUUGAUAAACACUGAAGAAGCUGGAGCUGUUAAAUUUAUCUUGGGGAAAUCUCAGAACUGGUUUAUUUGGUGUCGUGGAACCUCUUACCGCUUUCAAUACACAAUUAGUAUGGAAUUCUCGGGUGCCAA	0.735

Block 6
Target: Myc proto-oncogene protein, bHLH-zipper, MAX partner unstated (MYC, Homo sapiens, UniProt P01106, residues 368-449)
Sequence of UniProt P01106 (368-449, looked up): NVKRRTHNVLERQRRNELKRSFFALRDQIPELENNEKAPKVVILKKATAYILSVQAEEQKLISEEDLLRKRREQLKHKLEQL
Technique: protein-binding microarray
Molecule type: double-stranded DNA, one strand shown
Medium: in vitro
Concentration: not given
Setting: k-mer, scored over probes, only values ≥0.25
Direction: higher = stronger binding
Oligonucleotide	E-score
ACATGTCG	0.297
ACATGGCC	0.354
ATGCCACG	0.427
CCACCCCG	0.327
ACTGCGTG	0.345
ATGCGCGG	0.268
GCACGCGA	0.414
ATGTGCCG	0.375
CCGGCACG	0.372
AGCACGCG	0.462
CATCGTGC	0.38
CGTGCGGC	0.397
ACGACCAC	0.342
ACCCCGCC	0.384
CCACACGC	0.397
CGTGCCAA	0.323
CCACCACG	0.404
CCCATGCC	0.376
ACAACCAC	0.304

Block 7
Target: TAR DNA-binding protein 43, full length, His tag (TARDBP, Homo sapiens, UniProt Q13148, residues 1-414)
Technique: RNA Bind-n-Seq
Molecule type: RNA
Medium: in vitro
Concentration: 20 nM
Setting: 6-mer, flanks averaged, single round
With: 150 mM LiCl
Reference: input library
Direction: higher = stronger binding
Oligonucleotide	6-mer enrichment (R)
CUGAAC	0.832
GAUGUA	1.05
CAGGGG	1.18
CUCUCA	0.877
AUGUUA	1.1
CGUAGG	0.94
ACCACC	0.961
GUCUUA	0.928
AAGCGU	0.954
GCUCCG	0.905
GCAUUG	0.939
AAGCAU	0.846
GAUCGA	0.919
GCGGGG	1.35
UAUGAU	1
GAGUCG	1.03
GGUAGU	1.14

Some of these lines once more (block 3):
Substitution	normalised enrichment score
R6W	-0.66
E8S	0.681
G10E	0.19
E8H	0.396
A3N	1.46
A3C	1.5
L7I	0.918
K5L	0.105
L7A	0.617
K5M	0.612
L9M	0.974
